Measured values gathered from unrelated publications.
Numbered parts are unrelated; each lists some results of a single study. Changes are numbered by the printed parent chain.
Chain of UniProt Q13177 (whole entry, looked up): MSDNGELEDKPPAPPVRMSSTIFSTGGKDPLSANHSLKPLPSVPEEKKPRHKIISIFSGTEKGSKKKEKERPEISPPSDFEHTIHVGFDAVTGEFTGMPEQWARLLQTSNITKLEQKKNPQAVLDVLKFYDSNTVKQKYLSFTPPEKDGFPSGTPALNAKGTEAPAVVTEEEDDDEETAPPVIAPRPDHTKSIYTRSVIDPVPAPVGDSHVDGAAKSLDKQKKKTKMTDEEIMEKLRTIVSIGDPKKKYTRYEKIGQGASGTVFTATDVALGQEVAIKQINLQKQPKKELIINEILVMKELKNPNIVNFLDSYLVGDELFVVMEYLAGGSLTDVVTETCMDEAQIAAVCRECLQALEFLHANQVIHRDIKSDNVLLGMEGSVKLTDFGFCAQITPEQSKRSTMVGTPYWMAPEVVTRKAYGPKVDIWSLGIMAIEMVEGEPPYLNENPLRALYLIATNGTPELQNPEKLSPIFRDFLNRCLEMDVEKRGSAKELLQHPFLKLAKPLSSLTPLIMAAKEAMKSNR

Study 1 — target: CCND3, cyclin fold, Cln2 fusion (human); method: yeast growth competition, sequencing; sample: yeast; setting: weak parent motif; relative to: not given; reading: higher = stronger binding
Starting sequence: PKMYT1 docking peptide (human); SFEPRNLLSLFED; partner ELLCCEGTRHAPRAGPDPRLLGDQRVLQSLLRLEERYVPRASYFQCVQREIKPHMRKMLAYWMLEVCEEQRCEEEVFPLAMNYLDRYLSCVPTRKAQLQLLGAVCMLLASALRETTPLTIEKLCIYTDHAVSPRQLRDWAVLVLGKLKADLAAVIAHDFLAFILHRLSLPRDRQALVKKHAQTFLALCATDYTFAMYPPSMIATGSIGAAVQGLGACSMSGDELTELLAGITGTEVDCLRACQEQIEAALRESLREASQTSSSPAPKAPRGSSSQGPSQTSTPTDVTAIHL
Under “normalised enrichment score”, `D13H` is recorded as -0.025.
`L7N` — result for “normalised enrichment score”: 0.146.
`L8M`: “normalised enrichment score” 0.0792.
Under “normalised enrichment score”, `P4E` is recorded as 0.122.
`L10M`: “normalised enrichment score” 0.0677.
Under “normalised enrichment score”, `P4Q` is recorded as 0.168.
`S9I` — result for “normalised enrichment score”: 0.0687.
Under “normalised enrichment score”, `L7G` is recorded as 0.112.

Study 2 — target: JDP2, bZIP domain (human); method: DHFR protein complementation; sample: yeast; relative to: wild-type JUN-FOS pair; reading: higher = stronger binding
Setting: single substitutions, most at no-binding floor
Starting sequence: JUN, bZIP domain (human); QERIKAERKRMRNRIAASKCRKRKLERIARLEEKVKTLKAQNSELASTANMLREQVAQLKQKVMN; partner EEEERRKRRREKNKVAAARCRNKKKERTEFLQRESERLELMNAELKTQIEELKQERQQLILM
For `K39A`, the binding fitness was 0.216 natural log.
The binding fitness of `R30D` is reported as 0.342 natural log.
For `V56R`, the binding fitness was -0.323 natural log.
`E44L` has a binding fitness of 0.196 natural log.
The binding fitness of `V35C` is reported as 0.272 natural log.
For `K36V`, the binding fitness was 0.328 natural log.
The binding fitness of `L31E` is reported as 0.248 natural log.
For `E54I`, the binding fitness was 0.256 natural log.

Study 3 — method: protein-binding microarray; molecule type: double-stranded DNA, one strand shown; sample: in vitro; concentration: 2200 nM top; setting: 60-bp whole probe; together with: salmon DNA 0.4 mg/ml; relative to: random background probes; reading: higher = stronger binding; shared flanks, not repeated: GCCTAGCAC … GTCTTGATTCGCTTGACGCTGCTG
Target: Interferon regulatory factor 7, full length, phosphomimetic (IRF7, Homo sapiens, UniProt Q92985, residues 1-503, S471D/S472D/S475D/S476D/S477D/S483D/S484D/S487D)
Target sequence (chain): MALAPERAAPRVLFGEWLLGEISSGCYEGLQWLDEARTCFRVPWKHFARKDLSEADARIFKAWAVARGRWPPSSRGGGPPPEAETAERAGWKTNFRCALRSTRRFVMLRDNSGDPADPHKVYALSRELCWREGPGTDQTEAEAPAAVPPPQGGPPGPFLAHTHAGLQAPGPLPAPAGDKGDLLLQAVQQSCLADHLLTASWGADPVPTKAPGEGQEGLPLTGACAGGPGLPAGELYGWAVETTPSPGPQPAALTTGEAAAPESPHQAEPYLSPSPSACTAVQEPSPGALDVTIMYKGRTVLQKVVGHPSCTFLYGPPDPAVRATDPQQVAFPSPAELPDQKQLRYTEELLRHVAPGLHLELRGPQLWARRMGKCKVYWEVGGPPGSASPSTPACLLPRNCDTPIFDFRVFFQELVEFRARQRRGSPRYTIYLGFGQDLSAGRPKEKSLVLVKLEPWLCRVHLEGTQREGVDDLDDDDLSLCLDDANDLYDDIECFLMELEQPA
`TTTGGTTTGTACACCGCCTTGTGCTAG`: “fitted relative affinity” 1.6 z-score.
For `GTCGGTATCGGTATCGGGACGTGCTAG`, “fitted relative affinity” read 0.971 z-score.
Under “fitted relative affinity”, `TTAGATTTCAGACTGGATAAGTGCTAG` is recorded as -0.0543 z-score.
Under “fitted relative affinity”, `GAAGATTTCGGGTTTCGAGACGTGCTA` is recorded as 5.06 z-score.
`GACGATATCAGTATCGGGACGTGCTAG` — result for “fitted relative affinity”: 0.294 z-score.
`TCAGTCTTCCCCATCTTACTGTGCTAG` — result for “fitted relative affinity”: 2.1 z-score.
Under “fitted relative affinity”, `TCTCGCTTCATCTCCCAGACTGTGCTA` is recorded as 3.39 z-score.
For `GACGATATCAGTATCGCGACGTGCTAG`, “fitted relative affinity” read 0.229 z-score.

Other studies, line by line
The remaining activity of `O=C(O)c1ccc2c3c1cccc3c(=O)n1c3ccccc3nc21` is reported as 97% (Serine/threonine-protein kinase PAK 2 (PAK2, Homo sapiens, UniProt Q13177); enzyme activity, inhibitor; 0.5 µM; relative to: control).

Repeated from above (other studies, line by line):
The remaining activity of `O=C(O)c1ccc2c3c1cccc3c(=O)n1c3ccccc3nc21` is reported as 97% (Serine/threonine-protein kinase PAK 2 (PAK2, Homo sapiens, UniProt Q13177); enzyme activity, inhibitor; 0.5 µM; relative to: control).
